Experimental data collected from several papers.
Values joined by “and” are separate records of one study, mostly repeats; a detail may differ.
Sample: plasma

| SMILES | system | conditions | clearance |
| --- | --- | --- | --- |
| C[N+]1(CC(=O)OC2CCCCCCCCCCC2)CCCCC1 | mouse | intraperitoneal, 1 mg/kg, single dose | 3.43 L/h |
| Nc1ccn(C[C@@H](CO)OCP(=O)(O)OCCCS(=O)(=O)CCCCCCCCCCC2CCC2)c(=O)n1 | mouse | intravenous, 3 mg/kg, single dose | 152 mL/min/kg |
| CCS(=O)(=O)c1ccccc1C(=O)N1CCN(c2nc3ccc(F)cc3s2)C[C@@H]1C | mouse | intravenous, 3 mg/kg | 33.2 mL/min/kg |
| COc1ccc(Nc2nc(-c3ccccc3)cc(C3CCNCC3)n2)cc1OC | male CD-1 mouse | intravenous, 3 mg/kg | 53 mL/min/kg |
| COC1C=COC2(C)Oc3c(C)c(O)c4c(c3C2=O)C2=NC3(CCN(CC(C)C)CC3)NC2=C(NC(=O)C(C)=CC=CC(C)C(O)C(C)C(O)C(C)C(OC(=O)Nc2cnccn2)C1C)C4=O (centres unmarked) | female CD-1 mouse | intravenous, 5 mg/kg | 2.2 mL/min/kg |
| CCCC[C@@H]1NC(=O)[C@H](Cc2ccc(O)cc2)NC(=O)[C@@H]2CCCN2C(=O)[C@H](CC(=O)O)NC(=O)[C@H](C)NC(=O)[C@H](Cc2ccccc2)NC(=O)[C@@H]2CSCCC(=O)N3CN(CN(C3)C(=O)CCSC[C@@H](C(=O)N[C@@H](C)C(N)=O)NC1=O)C(=O)CCSC[C@H](NC(C)=O)C(=O)N[C@@H](CC(C)(C)C)C(=O)N1CCC[C@H]1C(=O)N[C@@H](CCC(=O)O)C(=O)N[C@H](CCCCNC(=O)CCc1cn(CCOCCOCCOCCN(CCOCCOCCOCCC(=O)N[C@@H](C)C(=O)N[C@@H](CCCCNC(=N)N)C(=O)N[C@@H](CC(=O)O)C(=O)N[C@H]3CSCCC(=O)N4CN5CN(C4)C(=O)CCSC[C@H](NC(=O)[C@H](CC(C)C)NC(=O)[C@@H]4CCCN4C(=O)[C@H](CC(N)=O)NC(=O)[C@H](C(C)C)NC(=O)[C@H](CC(C)C)NC(=O)[C@@H]4C[C@@H](O)CN4C3=O)C(=O)N[C@@H](CC(C)C)C(=O)N[C@@H](Cc3c[nH]cn3)C(=O)N3CCC[C@H]3C(=O)N[C@H](CC(=O)O)C(=O)N[C@@H](Cc3c[nH]c4ccccc34)C(=O)N[C@@H](CCCCNC(=N)N)C(=O)N[C@H](C(N)=O)CSCCC5=O)CCOCCOCCOCCn3cc(CCC(=O)NCCCC[C@H]4NC(=O)[C@H](CCC(=O)O)NC(=O)[C@@H]5CCCN5C(=O)[C@H](CC(C)(C)C)NC(=O)[C@@H](NC(C)=O)CSCCC(=O)N5CN6CN(C5)C(=O)CCSC[C@H](NC(=O)[C@H](Cc5ccc(O)cc5)NC(=O)[C@@H]5CCCN5C4=O)C(=O)N[C@@H](Cc4ccccc4)C(=O)N[C@@H](C)C(=O)N[C@@H](CC(=O)O)C(=O)N4CCC[C@H]4C(=O)N[C@@H](Cc4ccc(O)cc4)C(=O)N[C@@H](CCCC)C(=O)N[C@H](C(=O)N[C@@H](C)C(N)=O)CSCCC6=O)nn3)nn1)C(=O)N1CCC[C@H]1C(=O)N[C@@H](Cc1ccc(O)cc1)C(=O)N2 | mouse | intravenous, 5 mg/kg | 17 mL/min/kg |
| CCc1nc(N)nc(N)c1C#C[C@H](C)c1cc(-c2ccncc2)ccc1OC | mouse | intraperitoneal, 16 mg/kg, single dose | 54.4 mL/min/kg and 54 mL/min/kg |
| Cc1ccc2oc(-c3c4c(N)n[nH]c(=O)c4nn3-c3ccc(NC(=O)/C=C/CN(C)C)cc3)c(C)c2c1 | mouse | intravenous, 1 mg/kg | 65.2 mL/min/kg |
| CCC/C(=C\C1=C(F)C(=O)c2ccccc2C1=O)C(=O)N(CC)CC | mouse | intravenous, 5 mg/kg | 2.5 mL/min/kg |
| COC1C=COC2(C)Oc3c(C)c(O)c4c(c3C2=O)C2=NC3(CCN(CC(C)C)CC3)NC2=C(NC(=O)C(C)=CC=CC(C)C(O)C(C)C(O)C(C)C(OC(=O)Nc2cscn2)C1C)C4=O (centres unmarked) | female CD-1 mouse | intravenous, 5 mg/kg | 2.47 mL/min/kg |
| COC(=O)c1ccc2c(c1)NC(=O)/C2=C(\Nc1ccc2c(c1)CCN2C(=O)CN1CCOCC1)c1ccccc1 | CD-1 mouse | intravenous, 10 mg/kg | 25 mL/min/kg |
| CCOc1c(C(C)(C)O)sc2cnc(Nc3ccc(N4CCC(N5CC6(COC6)C5)CC4)cc3OC)nc12 | male C57BL/6 mouse | intravenous, 3 mg/kg | 11.8 mL/min/kg |
| COC1C=COC2(C)Oc3c(C)c(O)c4c(c3C2=O)C2=NC3(CCN(CC(C)C)CC3)NC2=C(NC(=O)C(C)=CC=CC(C)C(O)C(C)C(O)C(C)C(OC(=O)c2cncnc2)C1C)C4=O (centres unmarked) | female CD-1 mouse | intravenous, 5 mg/kg | 3.92 mL/min/kg |
| NC(=O)c1c(F)ccc(OCc2nc3cc(Cl)cnc3s2)c1F | mouse | intravenous, 3 mg/kg | 20.6 mL/min/kg |

Some of these lines once more:
| SMILES | system | conditions | clearance |
| --- | --- | --- | --- |
| COC1C=COC2(C)Oc3c(C)c(O)c4c(c3C2=O)C2=NC3(CCN(CC(C)C)CC3)NC2=C(NC(=O)C(C)=CC=CC(C)C(O)C(C)C(O)C(C)C(OC(=O)Nc2cscn2)C1C)C4=O (centres unmarked) | female CD-1 mouse | intravenous, 5 mg/kg | 2.47 mL/min/kg |
